Results gathered from unrelated publications.
Protocols differ between the studies behind these lines. Values joined by “and” are separate records of one study, mostly repeats; a detail may differ. ± marks the error that the study gave.
USP49 ZnF-UBD domain: Ubiquitin carboxyl-terminal hydrolase 49, ZnF-UBD domain (USP49, Homo sapiens, UniProt Q70CQ1)
Chain of UniProt Q70CQ1 (whole entry, looked up): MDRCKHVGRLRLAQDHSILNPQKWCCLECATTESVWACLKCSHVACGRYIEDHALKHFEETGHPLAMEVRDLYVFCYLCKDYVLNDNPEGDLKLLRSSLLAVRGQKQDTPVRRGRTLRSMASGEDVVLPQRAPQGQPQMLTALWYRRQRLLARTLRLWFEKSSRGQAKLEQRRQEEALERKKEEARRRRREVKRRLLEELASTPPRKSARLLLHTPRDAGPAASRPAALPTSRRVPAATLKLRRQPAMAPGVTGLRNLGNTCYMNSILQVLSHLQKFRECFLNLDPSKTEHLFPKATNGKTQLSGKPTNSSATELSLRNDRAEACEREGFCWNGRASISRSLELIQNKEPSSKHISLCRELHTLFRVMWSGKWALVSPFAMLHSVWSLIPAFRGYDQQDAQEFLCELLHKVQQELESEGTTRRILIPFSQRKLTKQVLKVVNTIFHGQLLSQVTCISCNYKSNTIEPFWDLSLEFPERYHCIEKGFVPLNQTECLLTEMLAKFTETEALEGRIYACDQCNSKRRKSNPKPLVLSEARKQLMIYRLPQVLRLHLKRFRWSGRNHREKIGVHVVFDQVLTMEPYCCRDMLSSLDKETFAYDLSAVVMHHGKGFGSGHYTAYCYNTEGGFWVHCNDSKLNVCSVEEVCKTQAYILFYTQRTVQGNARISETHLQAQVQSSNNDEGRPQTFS

Structure (SMILES) = O=C(COc1ccc(Cl)cc1)NC12CC(c3nnc([C@H]4C[C@@H](OC(F)(F)F)C4)o3)(C1)C2; system = human both sexes; setting = oral, 200 mg single dose; measurement = participants with TEAE; result = 66.7%
Structure (SMILES) = CC[C@H](C)[C@H](NC(=O)[C@H](Cc1ccccc1)NC(=O)[C@H](CCC(=O)O)NC(=O)[C@H](CCCCNC(=O)COCCOCCNC(=O)COCCOCCNC(=O)CC[C@H](NC(=O)CCCCCCCCCCCCCCCCC(=O)O)C(=O)O)NC(=O)[C@H](C)NC(=O)[C@H](C)NC(=O)[C@H](CCC(N)=O)NC(=O)CNC(=O)[C@H](CCC(=O)O)NC(=O)[C@H](CC(C)C)NC(=O)[C@H](Cc1ccc(O)cc1)NC(=O)[C@H](CO)NC(=O)[C@H](CO)NC(=O)[C@@H](NC(=O)[C@H](CC(=O)O)NC(=O)[C@H](CO)NC(=O)[C@@H](NC(=O)[C@H](Cc1ccccc1)NC(=O)[C@@H](NC(=O)CNC(=O)[C@H](CCC(=O)O)NC(=O)C(C)(C)NC(=O)[C@@H](N)Cc1cnc[nH]1)[C@@H](C)O)[C@@H](C)O)C(C)C)C(=O)N[C@@H](C)C(=O)N[C@@H](Cc1c[nH]c2ccccc12)C(=O)N[C@@H](CC(C)C)C(=O)N[C@H](C(=O)N[C@@H](CCCNC(=N)N)C(=O)NCC(=O)N[C@@H](CCCNC(=N)N)C(=O)NCC(=O)O)C(C)C; system = Japanese subjects; setting = 0.5 mg, moderate adverse events; measurement = subjects with adverse events; result = 12.5%
Structure (SMILES) = Cl.[2H]C([2H])([2H])CC(=O)c1cnc(NC(=O)C2CC2)cc1Nc1cccc(-c2ncn(C([2H])([2H])[2H])n2)c1OC; test = median; system = human; setting = oral, 20 mg twice daily, day 1, fasted, tablet, multiple dose; measurement = Tmax; result = 2.01 h
Structure (SMILES) = Cc1ccc(Sc2ccccc2N2CCNCC2)c(C)c1; test = refers to: Thirst; system = healthy adult men; setting = oral, 20 mg daily, 12 days; measurement = participants with TEAE; result = 0%
Structure (SMILES) = O=C(Nc1nc2cccc(-c3ccc(CN4CCS(=O)(=O)CC4)cc3)n2n1)C1CC1; test = refers to: arthralgia; system = human rheumatoid arthritis patients; setting = oral, 200 mg once daily, 4 weeks, regardless of relatedness; measurement = treatment-emergent adverse events; result = 8.3%
Structure (SMILES) = COc1cc2c(cc1OC)CN(CCc1ccc(NC(=O)c3cccc4c(=O)c5cccc(OC)c5[nH]c34)cc1)CC2; system = Sprague Dawley rats, plasma; setting = iv infusion, 0.09 mg/h/kg, 4 h; measurement = total plasma concentration; result = 34.4 ng/mL
Structure (SMILES) = CC(C)(C(=O)N1CCOc2c(C#N)cncc2C1)C(F)F; test = refers to: chest discomfort; system = human; setting = oral, 20 mg once daily, 14 days, multiple ascending dose; measurement = subjects with adverse event; result = 0%
Structure (SMILES) = C=CC(=O)N1CCC[C@@H](n2nc(-c3ccc(Oc4ccccc4)cc3)c3c(N)ncnc32)C1; system = PBS; setting = 100 µM, 23 h, pH 7.45, 37 °C, together with: GSH 5 mM; measurement = GSH adduct formation; result = 91%
Structure (SMILES) = NS(=O)(=O)c1ccc(NN=C2C(=O)Nc3ccc4[nH]nnc4c32)cc1; system = octanol/buffer; setting = 67 µM, pH 7.4; measurement = logD; result = 1.65
Structure (SMILES) = CCOc1c([C@H](C)n2nc(C)c3c(N)ncnc32)cc(Cl)c(F)c1[C@@H]1CNC(=O)C1; system = previously treated B-cell malignancy patients; setting = oral, 5 to 45 mg once daily, across doses and timepoints; measurement = highest LSM ΔQTcF; result = 4.75 ms
Structure (SMILES) = Cc1cc(-c2nccc3c2ccn3CC(=O)Nc2ccc(-c3cnccn3)cn2)ccn1; system = human; setting = SAD part, single 7 mg dose; measurement = subjects with any IMP-related TEAE; result = 16.7%
Structure (SMILES) = O=C(O)CN1CCCN2CCN(CC(=O)O)CCCN(CC1)Cc1cccc(n1)C2; system = 64Cu complex; setting = 24 h, pH 7.4, 37 °C, together with: DOTA excess; measurement = intact complex; result = 95%
Structure (SMILES) = O=C(Nc1ccc(OC(F)(F)Cl)cc1)c1cnc(N2CC[C@@H](O)C2)c(-c2ccn[nH]2)c1; system = human patients; setting = oral, dose not given; scale = baseline: records; measurement = triglyceride increase incidence; result = 33%
Structure (SMILES) = O=C(O)CCn1cnc2ccccc21; target or system = USP49 ZnF-UBD domain; measurement = Kd; result = > 1000 µM
Structure (SMILES) = C[C@H](NC(=O)[C@H](CCC(N)=O)NC(=O)[C@H](C)NC(=O)[C@H](CCCNC(=N)N)NC(=O)[C@H](CCC(N)=O)NC(=O)[C@H](C)NC(=O)[C@H](CCCNC(=N)N)NC(=O)[C@H](CCC(N)=O)NC(=O)[C@H](C)NC(=O)[C@H](CCC(N)=O)NC(=O)[C@H](CCCNC(=N)N)NC(=O)[C@H](C)NC(=O)[C@H](CCC(N)=O)NC(=O)[C@H](CCCNC(=N)N)NC(=O)[C@H](C)NC(=O)[C@H](CCC(N)=O)NC(=O)[C@H](C)NC(=O)[C@H](CCCNC(=N)N)NC(=O)[C@H](CCC(N)=O)NC(=O)[C@H](C)NC(=O)[C@H](CCCNC(=N)N)NC(=O)[C@H](CO)NC(=O)[C@H](Cc1ccc(O)c(I)c1)NC(=O)CNC(=O)CNC(=O)CN)C(=O)N[C@@H](CCCNC(=N)N)C(=O)N[C@@H](CCC(N)=O)C(=O)N[C@@H](C)C(=O)N[C@@H](CCCNC(=N)N)C(=O)N[C@@H](CCC(N)=O)C(=O)O [iodine-125 labelled]; system = H2/IL-6 transgenic BALB/c mice, both sexes, lower intestine; setting = intravenous, 4 h; measurement = tissue uptake; result = 8.2 %ID/g
Structure (SMILES) = Cn1cncc1-c1c(F)cncc1NC(=O)c1c(N)nn2cc(F)cnc12; test = two-compartment PK-TGI model; system = xenograft-bearing mice, plasma; setting = 25 to 50 mg/kg; measurement = central volume V1; result = 0.00983 L/kg
Structure (SMILES) = O=C(OC(C(F)(F)F)C(F)(F)F)N1CCN(Cc2cccc(Oc3ccccc3)c2)CC1; test = PET blocking study; system = rhesus monkey, brain THA; setting = 0.3 mg/kg, compound pretreatment, together with: [18F]T-401 tracer; measurement = Ktrans; result = 0.027 min⁻¹
Structure (SMILES) = C[Si]1(C)O[Si](C)(C)O[Si](C)(C)O[Si](C)(C)O1; system = air/water; setting = concentration not given; measurement = enthalpy of phase change; result = 17.7 kcal/mol
Structure (SMILES) = O=C(Nc1cnccc1Cl)N1CCN(Cc2ccc3c(c2)OC(F)(F)O3)CC1; test = refers to: Somnolence; system = human healthy young men; setting = 10 mg, multiple dose; measurement = adverse event incidence; result = 0%
Structure (SMILES) = CC[C@H](C)[C@H](NC(=O)[C@H](CO)NC(=O)[C@H](CCCNC(=N)N)NC(C)=O)C(=O)N[C@H]1CSSC[C@@H](C(=O)N[C@H](C(N)=O)[C@@H](C)O)NC(=O)[C@H](CCCNC(=N)N)NC(=O)[C@H](Cc2c[nH]cn2)NC(=O)[C@H](C)NC(=O)CNC(=O)[C@H](Cc2c[nH]c3ccccc23)NC(=O)[C@H](CC(=O)O)NC(=O)[C@H](CCC(N)=O)NC(=O)[C@H](Cc2ccc(O)cc2)NC(=O)[C@H](C(C)C)NC1=O; test = RP-HPLC, C18; system = 28% acetonitrile isocratic; setting = pH 7.4; measurement = log retention factor; result = -0.322
Structure (SMILES) = CCC(=O)N(CCC(c1ccc2c(c1)OCO2)c1ccccc1OC)Cc1ccccc1 (stereo not shown); system = female athymic nude mouse, blood; setting = i.p., 60 mg/kg twice daily, 14 days, group mean; measurement = GGT; result = 0 U/L
Structure (SMILES) = CCCn1cc(C)c2c(=O)[nH]c(-c3cc(S(=O)(=O)N4CCN(CC)CC4)ccc3OCC)nc21; system = human; setting = treatment-emergent adverse event; measurement = flushing; result = 38.9%
Structure (SMILES) = CN(CCC(=O)O)C(=O)c1ccc2c(c1)CC[C@@H]1[C@@H]2CC[C@]2(C)C(c3cncc(F)c3)=CC[C@@H]12; system = premenopausal women, endometriosis pain, serum; setting = 60 mg twice daily, visit 6, median; scale = baseline: baseline; measurement = direct bilirubin change; result = 0.175 mg/dL
Structure (SMILES) = N#Cc1cc([C@@H]2COC[C@H](c3cc(Cl)cc(Cl)c3)N2)ccc1F; test = shake-flask, 1-octanol/buffer; setting = pH 7.4; measurement = logD; result = > 4.1
Structure (SMILES) = C=CC(=O)Nc1cc(Nc2nccc(-c3cn(C)c4ccccc34)n2)c(OC)cc1N(C)CCN(C)C; test = UHPLC-MS/MS; system = human, dried blood spot finger-prick; setting = oral, 80 mg once daily; measurement = trough concentration; result = 208 ng/mL and 276 ng/mL and 269 ng/mL and 205 ng/mL and 254 ng/mL and 196 ng/mL and 222 ng/mL and 200 ng/mL
Structure (SMILES) = O=C(O)CCc1ccccc1; target or system = USP49 ZnF-UBD domain; measurement = Kd; result = 172 µM
Structure (SMILES) = c1cc(-c2ccc3ncnc(Nc4ncco4)c3c2)nc(N2CCOCC2)n1; system = human liver microsomes; measurement = CLint; result = 73 µL/min/mg
Structure (SMILES) = CCOC(=O)N1C[C@@H](c2ccc(F)c(C#N)c2)N[C@@H](c2ccc(C(=O)OC)cc2)C1; test = shake-flask, 1-octanol/buffer; setting = pH 7.4; measurement = logD; result = > 4.7
Structure (SMILES) = CO[C@@H]1[C@H](O)[C@@H](CO)O[C@H]1n1c([N+](=O)[O-])nc2c(=O)[nH]c(N)nc21; test = depurination, RP-HPLC; system = citrate-phosphate buffer 0.5 mM; setting = 77 min, pH 2, 37 °C; measurement = nucleoside remaining fraction; result = 0.931
Structure (SMILES) = N#Cc1ccc2c(c1)[C@H]1CCCN(C(=O)c3ccc4[nH]cnc4c3)[C@H]1C2; system = human; setting = 10 mg, day 15; measurement = minimum ACTH level; result = 2.1 pmol/L
Structure (SMILES) = CO[C@H]1C[C@@H]2CC[C@@H](C)[C@@](O)(O2)C(=O)C(=O)N2CCCC[C@H]2C(=O)O[C@H]([C@H](C)C[C@@H]2CC[C@@H](O)[C@H](OC)C2)CC(=O)[C@H](C)/C=C(\C)[C@@H](O)[C@@H](OC)C(=O)[C@H](C)C[C@H](C)/C=C/C=C/C=C/1C; system = healthy adult horses; setting = oral, 0.06 mg/kg, 4 h; measurement = rectal temperature; result = 37.3 ± 0.3 °C
Structure (SMILES) = Cc1ccc([C@@H]2O[C@H](CO)[C@@H](O)[C@H](O)[C@H]2O)cc1Cc1ccc(-c2ccc(F)cc2)s1; system = Japanese type 2 diabetes patients; setting = 100 mg, day 4, 24 h urine collection; scale = baseline: baseline; measurement = urinary potassium excretion change; result = 0.826 mEq
Structure (SMILES) = CN(C(=O)n1cnc(-c2cccnc2)c1)C1CCCCC1; system = Wistar rat, medulla oblongata; setting = oral, 10 mg/kg/day of BIA 10-2474, 24 h, repeated 5 days; measurement = concentration; result = 7.3 ± 0.2 ng/g
Structure (SMILES) = Cc1ccc(NS(=O)(=O)c2cc(C(=O)Nc3ccccc3C(=O)N3CCOCC3)ccc2Cl)c(C)c1; system = octanol/buffer; setting = pH 7.4; measurement = logD; result = 3.09
Structure (SMILES) = C=CC(=O)NC1CCN(c2ncc3ncnc(Nc4ccc(Oc5ccc6c(c5)ncn6C)c(C)c4)c3n2)CC1; system = healthy male volunteers; setting = oral, 60 mg, 2 weeks; measurement = subjects with serious adverse events; result = 0%
Structure (SMILES) = O=C(O)CCC(=O)O.[2H]C([2H])([2H])Oc1cc(C)c2[nH]ccc2c1CN1CC[C@@H](C2CC2)C[C@H]1c1ccc(C(=O)O)cc1; system = healthy Chinese subjects; setting = 600 mg, single ascending dose; measurement = subjects with any TEAE; result = 16.7%
Structure (SMILES) = CN1CCN(c2cccc3c2CCN(C(=O)/C=C/c2c(-n4cnnn4)ccc(Cl)c2F)[C@@H]3C(=O)Nc2ccc(C(=O)O)cc2)C(=O)C1; system = healthy human subjects; setting = intravenous infusion, 3 mg/h, 5 days; measurement = subjects with serious adverse event; result = 0%

Repeated from above:
Structure (SMILES) = C=CC(=O)N1CCC[C@@H](n2nc(-c3ccc(Oc4ccccc4)cc3)c3c(N)ncnc32)C1; system = PBS; setting = 100 µM, 23 h, pH 7.45, 37 °C, together with: GSH 5 mM; measurement = GSH adduct formation; result = 91%
Structure (SMILES) = NS(=O)(=O)c1ccc(NN=C2C(=O)Nc3ccc4[nH]nnc4c32)cc1; system = octanol/buffer; setting = 67 µM, pH 7.4; measurement = logD; result = 1.65
Structure (SMILES) = CCOc1c([C@H](C)n2nc(C)c3c(N)ncnc32)cc(Cl)c(F)c1[C@@H]1CNC(=O)C1; system = previously treated B-cell malignancy patients; setting = oral, 5 to 45 mg once daily, across doses and timepoints; measurement = highest LSM ΔQTcF; result = 4.75 ms
Structure (SMILES) = Cc1cc(-c2nccc3c2ccn3CC(=O)Nc2ccc(-c3cnccn3)cn2)ccn1; system = human; setting = SAD part, single 7 mg dose; measurement = subjects with any IMP-related TEAE; result = 16.7%
